Experimental data of several laboratories.
Values joined by “and” are separate records of one study, mostly repeats; a detail may differ. ± gives the spread as reported.
Sequence of UniProt P46109 (whole entry, looked up): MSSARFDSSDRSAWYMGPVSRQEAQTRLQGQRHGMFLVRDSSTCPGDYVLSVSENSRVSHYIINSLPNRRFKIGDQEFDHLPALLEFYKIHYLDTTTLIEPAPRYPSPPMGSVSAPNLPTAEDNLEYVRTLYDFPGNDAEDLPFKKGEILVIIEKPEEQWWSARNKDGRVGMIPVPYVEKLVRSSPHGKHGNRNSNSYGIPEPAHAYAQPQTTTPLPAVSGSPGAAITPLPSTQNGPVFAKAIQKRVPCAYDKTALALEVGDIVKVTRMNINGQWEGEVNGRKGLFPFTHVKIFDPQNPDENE

SMILES	target or system	test	system	conditions	scale	measurement	result
CC(C)C[C@@H](N)C(=O)N1CCC[C@@H]1C(=O)N[C@H](Cc1ccccc1)C(=O)N[C@H](Cc1ccccc1)C(=O)N[C@H](C)C(=O)N[C@H](CCC(=O)O)C(N)=O	NGF-differentiated PC-12 neurons			160 µM, 24 h	baseline: untreated	viability	91.7%
C[C@H]1COCCN1c1nc(NCc2cccnc2C(F)(F)F)c2cccnc2n1	THP-1 cells	cytotoxicity				IC50	> 250 µM
CC(C)C[C@@H](NC(=O)[C@H](N)CCCCN)C(=O)N[C@H](CC(C)C)C(=O)N[C@H](Cc1ccccc1)C(N)=O	NGF-differentiated PC-12 neurons			10 µM, 24 h	baseline: untreated	viability	100%
CCCCN(CCCNC(=O)c1cc(Nc2ccc(OC)c(OC)c2)nc2ccccc12)Cc1ccccc1	Vero-E6	CellTiter-Glo ATP		concentration not given, 72 h, retest 8-point duplicates	baseline: DMSO 0%, hyamine -100%, more negative, more toxic	cytotoxicity efficacy	0%
Clc1ccc(-c2nn3c(Cn4cnc5ccccc54)nnc3s2)cc1	HEp-2	cytotoxicity				CC50	> 100 µM
Cc1ccc2[nH]c3c(c2c1)CCCC3NCCCNC1CCCc2c1[nH]c1ccc(C)cc21 (centres unmarked)	A549			50 µM, 23 h		non-viable cells	62.2 ± 27.3%
CCc1ccc(Sc2cc(C(=O)NCCCN3CCC(C)CC3)c3ccccc3n2)cc1	Vero-E6	CellTiter-Glo ATP		concentration not given, 72 h, retest 8-point duplicates	baseline: DMSO 0%, hyamine -100%, more negative, more toxic	cytotoxicity efficacy	-31.4%
Cc1noc(C)c1Nc1ccnc2ccc(-c3ccc(S(=O)(=O)N4CCOCC4)cc3)cc12	NIH 3T3	cytotoxicity, PrestoBlue		96 h, 2% FBS		TC50	> 20 µM
CC(=O)O[C@H]1CC[C@]2(C)[C@H]3CC[C@]4(C)Oc5oc(C)cc(=O)c5C[C@H]4[C@]3(C)CC[C@H]2C1(C)C	Calu-3			50 µM		cytotoxicity	0%
C[n+]1cc2c3c(ccc2c2ccc4cc5c(cc4c21)OCO5)OCO3	differentiated THP-1			72 h	baseline: THP-1 CC50 over EC50	selectivity index	15
CC(C)(Nc1nc(N2CCNCC2)nc2ccccc12)c1ccccc1	Vero-E6	CellTiter-Glo ATP		72 h, second round 5-point	baseline: DMSO 0%, hyamine -100%, more negative, more toxic	maximum response	-4.05%
Oc1ccc(C(c2ccc(O)cc2)(C(F)(F)F)C(F)(F)F)cc1	HepG2 spheroids	annexin V-FITC/PI flow cytometry		10 µM, 24 h		late apoptotic cells	10.9 ± 7.09%
Cc1c2ccccc2c(C)c2c1ccc1ccccc12	HepaRG			maximum tested, 24 (unit not given)		micronucleated cells	2.6%
CC(C)C[C@@H](NC(=O)[C@H](N)CCCCN)C(=O)N1CCC[C@@H]1C(=O)N[C@H](Cc1ccccc1)C(=O)N[C@H](Cc1ccccc1)C(N)=O	NGF-differentiated PC-12 neurons			20 µM, 24 h	baseline: untreated	viability	100%
CN1CCN(S(=O)(=O)c2ccc(-c3ccc4c(Nc5ccc(OCc6cccc(F)c6)c(Cl)c5)ccnc4c3)cc2)CC1	NIH 3T3	PrestoBlue	2% FBS medium	96 h		TC50	14 µM
CCCCCCCCCCCC[N+](C)(C)Cc1ccccc1.[Br-]	PC-12	CCK-8		10 µM, dark or illumination		cell viability	~40%
CC(C)C[C@H](NC(=O)[C@H](C)NC(=O)[C@@H](NC(=O)[C@H](CCCNC(=N)N)NC(=O)[C@H](CC(C)C)NC(=O)[C@H](Cc1c[nH]c2ccccc12)NC(=O)[C@@H]1CCCN1C(=O)[C@@H](N)CCCCN)C(C)C)C(=O)N[C@@H](CS)C(=O)N1CCC[C@H]1C(=O)NCC(=O)O	HEp-2	WST-1		256 µM, 24 h		viability	100% and 98.9% and 103%
Cc1ccc(C)c(Nc2cc(C(=O)NCCCN(C)C3CCCCC3)c3ccccc3n2)c1	Vero-E6	CellTiter-Glo ATP		72 h, retest 8-point duplicates	baseline: DMSO 0%, hyamine -100%, more negative, more toxic	maximum response	-45.1%
C1CCNCC1	HCT-8 infected with Cryptosporidium parvum	Hoechst nuclei count		1 mM, 24 h	baseline: PBS	host cell number	1.04 ± 0.036
COc1cc2nccc(Oc3ccc(NC(=O)Nc4cc(C)on4)c(Cl)c3)c2cc1OC	human coronavirus OC43	virus-induced cell killing	MRC-5	maximum over 10 doses		maximum inhibition	0%
Oc1ccc(C2(c3ccc(O)cc3)c3ccccc3-c3ccccc32)cc1	HepG2 spheroids	annexin V-FITC/PI flow cytometry		40 µM, 24 h		necrotic cells	5.6 ± 2.47%
CO[C@H]1C[C@@H]2CC[C@@H](C)[C@@](O)(O2)C(=O)C(=O)N2CCCC[C@H]2C(=O)O[C@H]([C@H](C)C[C@@H]2CC[C@@H](OC(=O)NCCOCCOCCOCCOCCOCCOCCOCCOCCC(=O)N3CCc4cc(Cn5nc(-c6ccc7oc(N)nc7c6)c6c(N)ncnc65)ccc4C3)[C@H](OC)C2)C[C@@H](O)[C@H](C)/C=C(\C)[C@@H](O)[C@@H](OC)C(=O)[C@H](C)C[C@H](C)/C=C/C=C/C=C/1C		phase 1 dose escalation	advanced solid tumour patients	intravenous, 8 mg weekly, grade ≥3		any SAE incidence	37.5%

SMILES	target or system	test	system	conditions	scale	measurement	result
CC(C)C[C@@H](NC(=O)[C@H](N)CCCCN)C(=O)N[C@H](CC(C)C)C(=O)N[C@H](Cc1ccccc1)C(=O)N[C@H](Cc1ccccc1)C(N)=O	NGF-differentiated PC-12 neurons			40 µM, 24 h	baseline: untreated	viability	99.6%
O=c1ccc2ccccc2o1	HepG2	item: cell count		concentration not given, 1 h, necrosis and apoptosis panel		probability of response	0.03%
CCCCN(CCCNC(=O)c1cc(Nc2cccc(SC)c2)nc2ccccc12)Cc1ccccc1	Vero-E6	CellTiter-Glo ATP		concentration not given, 72 h, second round 5-point	baseline: DMSO 0%, hyamine -100%, more negative, more toxic	cytotoxicity efficacy	-10.3%
COc1cc2c(Oc3ccc4[nH]c(C)cc4c3F)ccnc2cc1OCC1(N)CC1			paediatric refractory sarcoma patients	8 mg		Appendicitis incidence	0%
[Cl][Cd][Cl]	HepaRG			maximum tested, 24 h, 72 h recovery	baseline: vehicle	relative survival	67%
CN(C)c1ccc(C(Nc2nc3c(-c4ccc([N+](=O)[O-])cc4)nn(-c4ccccc4)c3s2)P(=O)(Oc2ccccc2)Oc2ccccc2)cc1 (centres unmarked)	BNL mouse liver cells	SRB		10 µM, 10% fetal bovine serum		viability	87.6%
CC(C)C[C@@H](N)C(=O)N1CCC[C@@H]1C(=O)N[C@H](Cc1ccccc1)C(=O)N[C@H](Cc1ccccc1)C(=O)N[C@H](C)C(N)=O	NGF-differentiated PC-12 neurons			5 µM, 24 h	baseline: untreated	viability	100%
CC(c1ccccc1)(c1ccc(O)cc1)c1ccc(O)cc1	HepG2 spheroids	annexin V-FITC/PI flow cytometry		0.1 µM, 24 h		necrotic cells	5.96 ± 1.8%
CC(C)(C)c1cc(-c2nn3c(Cn4cnc5ccccc54)nnc3s2)cc(C(C)(C)C)c1	HEp-2	cytotoxicity				CC50	1.3 µM
CCC1CCCCN1CCCNC(=O)c1sc2nc(C)cc(C)c2c1-n1cccc1 (centres unmarked)	Vero-E6	CellTiter-Glo ATP		72 h, first round 5-point	baseline: DMSO 0%, hyamine -100%, more negative, more toxic	maximum response	-2%
COc1ccc(Nc2nn3c(-c4ccccc4)ccnc3c2C(=O)Nc2ccccc2)cc1	WI-38	MTT	serum-free medium	250.00 µg/mL, 48 h		viability	55.4%
CC(C)C[C@@H](N)C(=O)N[C@H](Cc1ccccc1)C(=O)N[C@H](Cc1ccccc1)C(=O)N[C@H](C)C(N)=O	NGF-differentiated PC-12 neurons			5 µM, 24 h	baseline: untreated	viability	100%
CCc1ccc(Cc2ccc3c(c2)[C@]2(OC3)O[C@H](CO)[C@@H](O)[C@H](O)[C@H]2O)cc1	human coronavirus OC43	virus-induced cell killing	MRC-5	screen		maximum inhibition	12%
Cc1ccc2nc(Cl)c3cc(C(=O)NCCCN4CCC(C)CC4)sc3c2c1	Vero-E6	CellTiter-Glo ATP		72 h, second round 5-point	baseline: DMSO 0%, hyamine -100%, more negative, more toxic	maximum response	-16.7%
CC(C)C[C@@H](NC(=O)[C@H](N)CCCCN)C(=O)N[C@H](CC(C)C)C(=O)N[C@H](Cc1ccccc1)C(=O)N[C@H](Cc1ccccc1)C(=O)N[C@H](C)C(N)=O	NGF-differentiated PC-12 neurons			80 µM, 24 h	baseline: untreated	viability	92.1%
C[C@H]1CN(c2n[nH]c3nc(N[C@H]4CC[C@H](NS(=O)(=O)CCC(F)(F)F)CC4)ncc23)CCO1	Crk-like protein (Homo sapiens, UniProt P46109)	biochemical				IC50	≥ 20 µM
Cc1cnc(Nc2ccnc3ccc(-c4ccc(S(=O)(=O)N5CCOCC5)cc4)cc23)s1	NIH 3T3	cytotoxicity, PrestoBlue		96 h, 2% FBS		TC50	> 20 µM
C/C=C(/C)C(=O)OC[C@H]1[C@@H](Cc2ccc(C(F)(F)F)cc2)CO[C@@H]1c1ccccc1	rat aortic VSMCs			30 µM, 24.5 h		LDH release	6 ± 2.4%
Cc1ccc(-c2cccc(CN3CCCC(c4nc5ccc(C)cc5c(=O)[nH]4)C3)c2)c(C)c1 (centres unmarked)	Vero-E6	CellTiter-Glo ATP		concentration not given, 72 h, retest 8-point duplicates	baseline: DMSO 0%, hyamine -100%, more negative, more toxic	cytotoxicity efficacy	0%
CN(CCC=C1c2ccccc2CCc2ccccc21)N=O	TK6			2.5 µM, 4 h, with: hamster liver S9	baseline: vehicle	relative survival	71.8%
CC(C)C[C@@H](NC(=O)[C@H](N)CCCCN)C(=O)N1CCC[C@@H]1C(=O)N[C@H](Cc1ccccc1)C(=O)N[C@H](Cc1ccccc1)C(=O)N[C@H](C)C(N)=O	NGF-differentiated PC-12 neurons			10 µM, 24 h	baseline: untreated	viability	99.1%
CN1CC[C@@H](c2c(O)cc(O)c3c(=O)cc(-c4ccc(C(F)(F)F)cc4Cl)oc23)[C@@H]1CO		item: Pyrexia	AML	oral, 200 mg, intermittent dosing		patients with adverse event	0%

Excerpt of the above:
SMILES	target or system	test	system	conditions	scale	measurement	result
C[n+]1cc2c3c(ccc2c2ccc4cc5c(cc4c21)OCO5)OCO3	differentiated THP-1			72 h	baseline: THP-1 CC50 over EC50	selectivity index	15
CC(C)(Nc1nc(N2CCNCC2)nc2ccccc12)c1ccccc1	Vero-E6	CellTiter-Glo ATP		72 h, second round 5-point	baseline: DMSO 0%, hyamine -100%, more negative, more toxic	maximum response	-4.05%
Oc1ccc(C(c2ccc(O)cc2)(C(F)(F)F)C(F)(F)F)cc1	HepG2 spheroids	annexin V-FITC/PI flow cytometry		10 µM, 24 h		late apoptotic cells	10.9 ± 7.09%
Cc1c2ccccc2c(C)c2c1ccc1ccccc12	HepaRG			maximum tested, 24 (unit not given)		micronucleated cells	2.6%
CC(C)C[C@@H](NC(=O)[C@H](N)CCCCN)C(=O)N1CCC[C@@H]1C(=O)N[C@H](Cc1ccccc1)C(=O)N[C@H](Cc1ccccc1)C(N)=O	NGF-differentiated PC-12 neurons			20 µM, 24 h	baseline: untreated	viability	100%
CN1CCN(S(=O)(=O)c2ccc(-c3ccc4c(Nc5ccc(OCc6cccc(F)c6)c(Cl)c5)ccnc4c3)cc2)CC1	NIH 3T3	PrestoBlue	2% FBS medium	96 h		TC50	14 µM
CCCCCCCCCCCC[N+](C)(C)Cc1ccccc1.[Br-]	PC-12	CCK-8		10 µM, dark or illumination		cell viability	~40%
